Published values pooled from the literature.
A part holds a random share of what one study measured.

Set 1
Target: Histone acetyltransferase KAT6A, winged helix 1, GST fusion (KAT6A, Homo sapiens, UniProt Q92794, residues 1-85)
Technique: protein binding microarray
Molecule type: double-stranded DNA, one strand shown
Medium: in vitro
Concentration: not given
Setting: 8-mer, flanks averaged, mean of 2 arrays, mostly near background
Relative to: not given
Direction: higher = stronger binding
Target sequence (chain): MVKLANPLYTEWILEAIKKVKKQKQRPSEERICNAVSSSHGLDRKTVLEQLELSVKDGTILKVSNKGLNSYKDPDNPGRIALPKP
`GACGCACA` has an E-score of 0.208.
`CGCCCTAC` gave an E-score of 0.196.
`CAGGGCCC` gave an E-score of 0.0405.
With `CTTGCTAA` the E-score was -0.203.
The E-score of `CATCAAAC` is reported as -0.189.
`CGCCGCGC` has an E-score of 0.473.
`GAGTTTCC` gave an E-score of -0.0158.
The E-score of `CAAACCAG` is reported as -0.244.
With `AGTGAGCC` the E-score was -0.132.
`AGCGCGAT` has an E-score of 0.326.
With `CTTGTAAC` the E-score was 0.0691.
The E-score of `ACGAGTGG` is reported as -0.147.
`AGATGTGC` has an E-score of -0.064.
With `ACGGGCGC` the E-score was 0.416.
The E-score of `ATGGTAGG` is reported as -0.171.
The E-score of `CAGTGTTC` is reported as -0.0221.
With `AGCATCGA` the E-score was -0.242.
For `CTCAATGC`, the E-score was 0.0166.

Set 2
Target: Sal-like protein 4, full length isoform B (SALL4, Homo sapiens, UniProt Q9UJQ4-2, residues 1-616)
Technique: universal PBM
Molecule type: double-stranded DNA, one strand shown
Medium: in vitro
Concentration: not given
Setting: 8-mer, flanks averaged, mean of replicates
Direction: higher = stronger binding
The E-score of `AAGATCTT` is reported as 0.231.
`CCATAAGA` has an E-score of 0.152.
With `ACAATGAA` the E-score was 0.224.
The E-score of `AACAACGG` is reported as -0.0545.
For `GACCTTCC`, the E-score was -0.136.
`CGATGACA` has an E-score of 0.078.
`ACGGCGGA` gave an E-score of -0.218.
For `ACGACTCG`, the E-score was -0.257.
`GGATCATA` gave an E-score of 0.155.
With `CCCGGCTC` the E-score was -0.391.
With `AGAAAGCA` the E-score was 0.0472.
For `ATGACGGA`, the E-score was 0.0568.
`CCGATCCG` gave an E-score of -0.303.
For `CGTTTGGA`, the E-score was -0.0865.
The E-score of `CGCAGATA` is reported as 0.00834.
`GGTCGTAA` has an E-score of 0.128.
`GTGCACGA` has an E-score of -0.102.
`ACTGCTTC` gave an E-score of -0.19.
With `GAGTATAA` the E-score was 0.282.

Set 3
Target: RNA binding protein fox-1 homolog 2, RRM domain, GST-SBP tag (RBFOX2, Homo sapiens, UniProt O43251-10, residues 100-194)
Technique: RNA Bind-n-Seq
Molecule type: RNA
Medium: in vitro
Concentration: 365 nM
Setting: natural RNA segment, single round, ends assumed
Relative to: no-protein control
Direction: higher = stronger binding
Construct (chain): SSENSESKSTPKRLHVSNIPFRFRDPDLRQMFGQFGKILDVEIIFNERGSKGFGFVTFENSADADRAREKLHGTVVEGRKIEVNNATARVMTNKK
`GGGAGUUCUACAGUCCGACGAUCUUUGCACUCCUCCAUCCCACCUGUGAGUGGGAGUUUACCUGUUACCCUGUAAUUAAAAACAAAGGCUAGGUAACUAUUGUGCCAGUGUUGACAGUUUAAACUGCUAACAGUGGAAUUCUCGGGUGCCAA` — result for “RBNS enrichment (R)”: 0.239.
`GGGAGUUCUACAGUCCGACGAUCUAGAUAGCUUUGGUAAAUAUCUUUAAUAGAGGUGACUAUUGAACUGUUGAAUCUUGCAUUUGCACAGUACAAGGUGUAACUAGCAUCUUUAGUAUUUUUAUUGUUUUGCUUGGAAUUCUCGGGUGCCAA` — result for “RBNS enrichment (R)”: 1.09.
`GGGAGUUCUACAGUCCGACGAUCGAGGACUCCAGGCAGCUGUGCUCCCAGGGCUCAUGUUCUCUACUGGAUUAGGGAUAGGCACCUCUGAAAUCUCCACCCUGAUGAUUGGAAUGAAACGGAGUGAACAUGAGUGGAAUUCUCGGGUGCCAA`: “RBNS enrichment (R)” 15.7.
`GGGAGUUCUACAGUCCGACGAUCACACUCCGUGUGACUGUAACAUUUCUUCAAGGAAAGUAUAGCGUCUAUGGAGUGCAGAGGGCAUGUGUUUGGGGAAAAAUAUACAUGACAUAAAGAUGACGACGAAGAAGUGGAAUUCUCGGGUGCCAA`: “RBNS enrichment (R)” 1.82.
For `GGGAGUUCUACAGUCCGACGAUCCAUCUAAUAUCUCAUGCAUGCAGUUUUGUUGUAUCAAUUAAAAGGGUUUUGUAUAUUUAUGGUGGGAGGCUACUGGGAACUUUUAACAAAAUAGGGAAUUAACUUUUGUAUGGAAUUCUCGGGUGCCAA`, “RBNS enrichment (R)” read 15.2.
For `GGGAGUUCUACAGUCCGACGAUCGGCAGCAAGAACGAAGCAGGAUGUUGUCACUCCCGUCUGAAUAAAGCUCCAUGAGCUGGGUUGGAAAGCUGAACAUUUAUCUUGCUUUCUUCUUCCCACCUCUUUCCCUGUGGAAUUCUCGGGUGCCAA`, “RBNS enrichment (R)” read 1.71.
For `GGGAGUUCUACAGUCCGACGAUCCGCUUGGGUGCGUGGGAGGGCGCACAUCAGGGCAGAGGCCAAGUUCCAGGUGUCUGUGUUCCCAGGAACCAAAUGGGGAGUCUGGGGCCCGUUUUCCCCCCAGGGGGUGUUGGAAUUCUCGGGUGCCAA`, “RBNS enrichment (R)” read 0.718.
`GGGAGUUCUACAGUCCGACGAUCUAACCUGUUUUUAUUAGAUCAGCGAAGACAGUCAUGCAUCGCUUAAUGAUGGGGAUGCAUUCUGAGAAAUGUGUCAUUAGGCUGUUUUGUUGCUGUGCCAACAUCCUAGAUGGAAUUCUCGGGUGCCAA` — result for “RBNS enrichment (R)”: 0.585.
`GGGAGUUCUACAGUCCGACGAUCCUGUUGUCUGGUUUUGAAAAACAAUUAUCUUGUUUUGCAAAUUGUGGAAUGAUGUAAGCAAAUGCUUUUGGUUACUGGUACAUGUGUUUUUUCCUAGCUGACCUUUUAUAUGGAAUUCUCGGGUGCCAA`: “RBNS enrichment (R)” 0.55.
For `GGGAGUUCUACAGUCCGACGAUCGCCUGAUUUAAAAAGAAAAAAAAAAUUCCUUAAGCCAAAUGGUGUUCCAAGUUGGUUGCUGUGACAACCUCCAGGAAGAGCCACUUGUUACCCUCUAUUCUUUCUAGUGCUGGAAUUCUCGGGUGCCAA`, “RBNS enrichment (R)” read 0.55.
`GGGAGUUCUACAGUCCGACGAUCGCAAAGGUUAACAUAUAAUGCCAAAUUUUUCCAUUCUGGUGCCCAUAUAGAUGACUUAAUUACAUUCUUGAUUGGUCAUGUGCAGUCUUCUGAAGAUGAGCUAACAAUGCUGGAAUUCUCGGGUGCCAA`: “RBNS enrichment (R)” 0.447.
`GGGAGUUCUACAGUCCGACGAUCUAAAGGUGUCCAAGGCAGCUGCAGAUUUGAUGGCCUACUGUGAAGCACAUGCCAAGGAAGACCCCCUCCUGACCCCUGUUCCGGCUUCAGAAAACCCGUUUAGGGAGAAGUGGAAUUCUCGGGUGCCAA` — result for “RBNS enrichment (R)”: 0.172.

Set 4
Target: Ras GTPase-activating protein-binding protein 1, RRM domain (G3BP1, Homo sapiens, UniProt Q13283)
Chain of UniProt Q13283 (whole entry, looked up): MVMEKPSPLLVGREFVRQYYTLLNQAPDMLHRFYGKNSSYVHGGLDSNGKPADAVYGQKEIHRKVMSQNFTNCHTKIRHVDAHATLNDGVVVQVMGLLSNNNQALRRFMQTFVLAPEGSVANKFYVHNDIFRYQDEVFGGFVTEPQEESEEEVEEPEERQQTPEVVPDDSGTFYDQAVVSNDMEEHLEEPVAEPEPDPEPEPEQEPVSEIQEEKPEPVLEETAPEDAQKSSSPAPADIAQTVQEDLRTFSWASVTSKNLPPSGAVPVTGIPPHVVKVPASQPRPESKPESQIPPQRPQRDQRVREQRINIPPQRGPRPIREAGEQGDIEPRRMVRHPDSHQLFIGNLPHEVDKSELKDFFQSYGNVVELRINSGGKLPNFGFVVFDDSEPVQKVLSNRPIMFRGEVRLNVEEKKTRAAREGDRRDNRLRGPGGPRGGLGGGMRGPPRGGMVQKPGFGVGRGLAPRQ
Technique: RNA Bind-n-Seq
Molecule type: RNA
Medium: in vitro
Concentration: 1 µM
Setting: whole 134-nt RNA, ends assumed
Together with: 150 mM KCl
Relative to: input library
Direction: higher = stronger binding
`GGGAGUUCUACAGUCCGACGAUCUGGCCCUGGUGGCAUGCGGGGAGGAAGAGGUGGCCUCAUGGAUCGUGGUCGUCCCGGUGGAAUGUUCAGAGGUGGCCGUGGUGGAGACAGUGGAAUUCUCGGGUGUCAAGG` has a log2 enrichment of 0.086.
For `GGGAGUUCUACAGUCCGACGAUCUGGAUUUUCAAGACACGAAUGCUCGGAGUCUGGCAGAAAGGAAGAGAGAAGAGGAGAAGCAGAAGCACUUGGAUAAAAUUUAUCAAGAAAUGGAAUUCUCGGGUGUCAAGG`, the log2 enrichment was -0.18.
`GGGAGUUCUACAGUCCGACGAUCGCAGGAAGUAAAAACAAAUGGAAAUGCUACGGAUAGUGGCAGGGGUGGGGGUUGCUAAGGAAAGGGUGGGAUGGGAGUGGGUAAAGAGUUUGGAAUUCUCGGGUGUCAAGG` has a log2 enrichment of 1.11.
`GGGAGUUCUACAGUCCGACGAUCCCUCAAGUCCUGUGCUACACAUCGUAUGUACCGAAUCGGAGGUUUUUGGAGGAAAGUAUUAUGUUACGCCGUUCGGAUCUGCACUUCCAGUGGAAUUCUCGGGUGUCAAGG` has a log2 enrichment of -0.202.
For `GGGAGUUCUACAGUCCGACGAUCCACAGACAACACACACCCACACAGACACAGAGGGAAGGGGUUGGGAUGGGGACAGGGUGCACAGCAGGGCGGGGUAGGACCCCAGCCCCUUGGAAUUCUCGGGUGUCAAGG`, the log2 enrichment was -0.173.
With `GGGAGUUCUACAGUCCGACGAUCAGUCCUGUGCUACACAUCGUAUGUACCGAAUCGGGUUUUUGGGAAAGGGAAAAAGGGAAAGUAUUAUGUUACGCCGUUCGGAUCUGCACUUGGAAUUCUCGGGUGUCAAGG` the log2 enrichment was 0.242.
`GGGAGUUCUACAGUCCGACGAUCUACCCUCGUGCCCCUGUUUUUCCUGGCCGUGGUAGUUACUCAAACAGAGGGAACUACAACAGAGGUGGAAUGCCCAACAGAGGGAACUACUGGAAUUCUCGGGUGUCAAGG` gave a log2 enrichment of -0.245.
The log2 enrichment of `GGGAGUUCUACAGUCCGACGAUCCUCAAGUCCUGUGCUACACAUCGUAUGUACCGAAUCGGGGUGGGGUGGGGUGGGAAAGUAUUAUGUUACGCCGUUCGGAUCUGCACUUCCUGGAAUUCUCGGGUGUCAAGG` is reported as 0.196.
The log2 enrichment of `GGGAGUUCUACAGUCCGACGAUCCUCAAGUCCUGUGCUACACAUCGUAUGUACCGAAUCGGUGGAAAAAGGUUUGGAAAGUAUUAUGUUACGCCGUUCGGAUCUGCACUUCCAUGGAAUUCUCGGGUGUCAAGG` is reported as -0.31.
`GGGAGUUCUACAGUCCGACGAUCUCAAGUCCUGUGCUACACAUCGUAUGUACCGAAUCGGGGUUGGGGUUGGUUGGGGAAAGUAUUAUGUUACGCCGUUCGGAUCUGCACUUCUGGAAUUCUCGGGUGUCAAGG` has a log2 enrichment of 0.157.
